Assay results collected from several papers.
Each numbered part is a random draw from the data of one study; scales do not carry over between parts. Changes are numbered by the printed parent chain.

Block 1 — method: RNA Bind-n-Seq; form: RNA; medium: in vitro; tested at: not given; notes: RNA with constant flanks, ends assumed; baseline: input RNA pool; reading: higher = stronger binding; quantity: bound/input enrichment
Target: RING finger protein unkempt homolog, zinc fingers 1-6, GST-SBP tag (UNK, Homo sapiens, UniProt Q9C0B0, residues 30-357)
Shared flanks, not repeated: GGGAGUUCUACAGUCCGACGAUC … CAACAGAGGAUUGAGCAUCA
Construct (chain): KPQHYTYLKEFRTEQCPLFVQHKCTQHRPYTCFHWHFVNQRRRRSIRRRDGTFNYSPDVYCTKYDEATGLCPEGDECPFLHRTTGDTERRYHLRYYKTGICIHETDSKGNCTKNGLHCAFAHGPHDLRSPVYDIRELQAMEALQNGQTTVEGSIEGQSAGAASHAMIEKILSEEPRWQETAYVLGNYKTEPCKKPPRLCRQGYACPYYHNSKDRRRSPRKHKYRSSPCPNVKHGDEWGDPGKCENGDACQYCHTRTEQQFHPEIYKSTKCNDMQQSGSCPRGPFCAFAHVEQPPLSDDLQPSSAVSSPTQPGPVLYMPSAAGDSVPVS
UUGGUUAAUGUGUUAUUUAUUGAGUAUUGUUUGUGCUAAGCAUUGUGUUAGAUUUAAAAAAUCCGUGGAUUGACUCCACUUUGUUGUGUUGUUUUCAUUGUUGAAAAUAAAUAUAACUUU: 2.14 ratio
GCUGAACCUGAUAUUAUUGAACAACUGGUGGAAUUUGCUUAUACUGCUAGAAUUUCUGUGAACCGCAACAAUGUUCAGUCUUUGUUAGAUGCAGCAAAUCAGUACCAGAUUGAACCUGUG: 0.144 ratio
UACGGGAAGGAUUUCAAUGAUAUCCGCCAGGACUUUCUACCCUGGAAGUCACUUGCAAGCACCGUCCAGUUUUAUUACAUGUGGAAAACCACAGACCGGUAUAUUCAGCAGAAAAGAUUG: 0.195 ratio
UGUACAAACCCCAUAACGCCCCUCUGCACACAGCCCGACCAAGUUAUUAAAGGGGGCGCCCGUAUUAUUCAGUGCCACAUCCUAAAUGACAAGCGACACAUAUUAACCAAAGAUACGAAU: 0.141 ratio
GUCAUUCAUACCAUUCACACCUAAAGACUGAAUUUUAUCUGUUUUGAAAACGAACUUCUCCCGCUACACAGAAGUAACAAAAUAUGUUAGUCAGUUUUGUAUUUAGAAAUGUAUUGGUAG: 2.47 ratio
AGGCCUUGGUUUACCCCGAGAUCCAUCUAUAUGGAAGCAUCGACAGUGGACUGUAAUGAUUCCGGGCUUUUAAACUUCCCAGCCAGAUUGCCUGCCGACACACAGAUUCUGCUCCUACAG: 0.217 ratio
CACAAGGAGCAGGCGGCCCAGCUGCGGAACCUGGUGCAGUGUGGUGACUUUCCUCAUCUGUCCGUGUACGGACCAUCAGGUGCUGGAAAAAAGACAAGAAUUAUGUGUAUUCUACGUGAA: 0.0947 ratio
AUUUGGUCUCUGUCCCCCCCCGGGGGGGGCGGGGGGGGCGAGCCCAGCCCCUCCGGUGCGACCCGGAAUGAAGCUGGACAGUGCCGAAGAGAAGUCGGGGGUCGGCUGCUCCCUGCCUGC: 0.105 ratio
GAUCCAGAGGAAGAGGAGGUUGAGAAGGAAGGGAAUGCCACUGUGAGUUUCUCACAGGCCCUGGCCGAGUUCACCAGCAAUGGGAACCUCUUUUCCAGCAUGUCCUGCAGCUCUGACUCU: 0.12 ratio
UCUAUUGCUACAAGAGAGGGAGUUACCGUUUUGUAUUCUAAACUGAUCAGCAAUAAGGAAGCCGUACCUUUGCCUCAACAGGUUUUAUGCCUCAAAGGACCACAGUUGCCUGAUUUUGAA: 0.13 ratio
CAUGAAGAAAGAACAAUUUUGCCUAUGUCAAGAGCUUUCCGUGGUAAACACCUCUCUUUUACCGUUCGAUUUCCAAACCAGGGCAGGCAAGUAGAUGACUUGGAGGUUUGGUCUCAUACA: 0.186 ratio

Block 2 — method: universal PBM; form: double-stranded DNA, one strand shown; medium: in vitro; tested at: 600 nM; reading: higher = stronger binding; quantity: E-score
Target: Sal-like protein 4, full length isoform A (SALL4, Homo sapiens, UniProt Q9UJQ4, residues 1-1053)
Sequence of UniProt Q9UJQ4 (whole entry, looked up): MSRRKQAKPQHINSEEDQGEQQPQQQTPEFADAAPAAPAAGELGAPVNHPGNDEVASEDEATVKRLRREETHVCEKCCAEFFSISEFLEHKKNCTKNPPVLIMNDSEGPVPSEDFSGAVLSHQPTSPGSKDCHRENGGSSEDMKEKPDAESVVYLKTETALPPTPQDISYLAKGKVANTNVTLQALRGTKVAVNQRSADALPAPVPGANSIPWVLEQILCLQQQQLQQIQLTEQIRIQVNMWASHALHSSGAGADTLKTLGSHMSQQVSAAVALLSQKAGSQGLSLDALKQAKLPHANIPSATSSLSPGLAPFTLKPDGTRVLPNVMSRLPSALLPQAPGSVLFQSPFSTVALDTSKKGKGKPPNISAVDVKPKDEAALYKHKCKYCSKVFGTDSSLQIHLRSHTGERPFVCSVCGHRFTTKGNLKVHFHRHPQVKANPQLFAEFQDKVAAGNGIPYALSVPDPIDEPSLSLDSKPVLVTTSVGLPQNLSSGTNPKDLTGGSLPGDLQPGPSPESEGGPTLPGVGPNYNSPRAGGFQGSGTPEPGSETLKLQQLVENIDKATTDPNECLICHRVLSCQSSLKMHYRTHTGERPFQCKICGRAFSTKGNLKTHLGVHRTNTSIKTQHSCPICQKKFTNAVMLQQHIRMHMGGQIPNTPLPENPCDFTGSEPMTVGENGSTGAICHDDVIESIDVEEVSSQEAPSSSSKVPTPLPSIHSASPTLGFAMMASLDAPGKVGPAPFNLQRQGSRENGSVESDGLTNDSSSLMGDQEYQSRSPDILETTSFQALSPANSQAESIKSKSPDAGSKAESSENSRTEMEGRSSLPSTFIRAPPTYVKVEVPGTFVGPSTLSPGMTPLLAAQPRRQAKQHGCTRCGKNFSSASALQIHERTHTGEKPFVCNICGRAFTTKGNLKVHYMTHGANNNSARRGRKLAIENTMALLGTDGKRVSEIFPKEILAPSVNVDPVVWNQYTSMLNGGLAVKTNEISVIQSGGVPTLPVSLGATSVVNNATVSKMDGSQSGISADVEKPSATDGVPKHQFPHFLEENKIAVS
Notes: 8-mer, flanks averaged, mean of replicates
AATTCCAT: 0.293
CATATAGC: 0.214
GCAACCCA: -0.0943
AATCCCAT: 0.17
AAGGTTAT: 0.203
AGTTTTGC: 0.274
CTTCGGCC: -0.101
GCGGTCCA: -0.379
AACGTGTA: 0.148
CTGAAACA: 0.159
AGATCGTA: -0.0549
CTGGACTA: -0.124
CTACTATC: 0.162
AGAAATCA: 0.252
CACATCCA: -0.00305
GATCCCGC: -0.262

Block 3 — method: protein binding microarray; form: double-stranded DNA, one strand shown; medium: in vitro; tested at: not given; baseline: not given; reading: higher = stronger binding; quantity: E-score
Target: Histone acetyltransferase KAT6A, winged helix 2, GST fusion (KAT6A, Homo sapiens, UniProt Q92794, residues 85-181)
Notes: 8-mer, flanks averaged, mean of 2 arrays, mostly near background
Construct (chain): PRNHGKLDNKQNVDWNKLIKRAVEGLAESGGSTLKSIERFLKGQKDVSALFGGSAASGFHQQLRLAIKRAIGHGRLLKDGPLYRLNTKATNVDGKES
AGGCATGG: 0.0409
ATCGTTCC: -0.0871
AGAGGCCA: -0.0865
AACACTCT: 0.0127
CAGACGTA: 0.00164
AAGGTTTG: -0.00517
AGAACTAT: 0.0104
CCGGGTCG: 0.185
GGGGTGAA: 0.0134
ACCGTCGC: 0.2
GAGTCACC: -0.0962
CGTGATCA: -0.128
GTAGGCAA: 0.0128
ATCACAGG: -0.206
GTCGAGTA: -0.00671
GGAATTAC: -0.108
AGGACAAG: -0.0435
TCCGTAGA: -0.0944

Block 4 — method: DHFR PCA, deep sequencing; medium: yeast; together with: (+)-ABA 1.4 µM; baseline: wild-type fitted maximum; reading: higher = stronger binding; quantity: relative binding score
Target: ABI1, truncated, D143A, DHFR fusion (Arabidopsis thaliana)
Notes: methotrexate growth selection, single substitutions
Parent: PYL1, truncated, DHFR fusion (Arabidopsis thaliana); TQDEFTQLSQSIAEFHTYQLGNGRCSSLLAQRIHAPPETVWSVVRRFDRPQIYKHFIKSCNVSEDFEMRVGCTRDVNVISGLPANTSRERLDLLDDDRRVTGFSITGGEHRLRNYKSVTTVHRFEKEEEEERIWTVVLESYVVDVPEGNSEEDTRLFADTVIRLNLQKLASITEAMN
T154R: -7.3%
F15S: 5.39%
M68Y: 20.6%
V142N: -12.2%
Q31Y: -0.905%
A13D: 40.4%
I133L: 55.2%
R69N: 39%
P146D: -7.49%
D92M: -1.01%
E109A: 16.9%
K58D: 6.58%
V62E: 2.82%
T17N: 3.04%
L82G: 21.9%

Block 5 — method: RNA Bind-n-Seq; form: RNA; medium: in vitro; tested at: 365 nM; baseline: no-protein control; reading: higher = stronger binding; quantity: RBNS enrichment (R)
Target: RNA binding protein fox-1 homolog 2, RRM domain, GST-SBP tag (RBFOX2, Homo sapiens, UniProt O43251-10, residues 100-194)
Notes: natural RNA segment, single round, ends assumed
Shared flanks, not repeated: GGGAGUUCUACAGUCCGACGAUC … UGGAAUUCUCGGGUGCCAA
AACUAGCAUAGGUCCCACAGAGAUGUGACAGAAUGAUGAAGCCGGCACCACAGCAUGUUGUUAUGUGAGGAGGCAAUCUGGAUAGCAAGCAUGUACCACAAAACAGUAGU: 34.7
GUCGGGUCCUCAGAUCGCCUCUGACUUGUUACCACAACAAAUCAUUUUGAUUUCAGUGCCUGUUGGGGACUUGAUUUCUUCUCAGUUUUGUUUGUUUGUUUGUUUCCUUA: 0.375
UCCCGAUGACUUUUUAUCUGUAGAAGGUUGACUGUCACUGUCCUCCUUUGUAGCUUCAUAUGUGGCUUUUAAAAUGUCAUUUCUCUAGGGUAUCUUUUUAUAUCACAGCC: 0.44
UAAAUGGAUGUAUUGUACAGAGAACACGAACGUCUCUUCCUUAUUUUACGUCUUCAGCACCCUUGAUUAAAAUGGUGUCGUUUACUUAUGUGCACCAAUUGUCAAAACCA: 0.752
GUGGUGGUGGUGCUCAGCCUAAUCAAAACUGUGUGUCUGCAAGUUUGAAGAAAAUGGAGACAGCUAGAACAAGCCCCCAGACUGCAAUCACUGGCUCCAGAAUUGUCUUU: 0.842
CUGGAGGAAGAAGACACAUUCCUAGUUCCCCGUGAACUUCCUUUGACUUAUUGUCCCCACUAAAACAAAACAAAAAACUUUUAAUGCCUUCCACAUUAAUUAGAUUUUCU: 0.695
CUGGAUCUCUGAUUAUCUUGUGAUCAUAGCACCUGCUGUCGGCACACUCCCGUGAGUCCUGUGGUCAGGGUUUCAGGAUAGGAGGUGGAGGUUUGGGUUAACGUGGGAAA: 0.525
UAUCAUGACUGGCUUUGGGAAAAUCAUGAAAAAUUAAGUCUAUCUUAAACUCUGCAGCUUUCAAGCUCAUCUGUUAUGCAUAGCUUUGCACUUCAAAAAAGCUUAAUUAA: 1.07
CUUUCCAUCUCCAGGAGACUUUCAUGCAGCCUAAAGUACAGCCUGGACCACCCCUGGUGUGUAGCUAGUAAGAUUACCCUGAGCUGCAGCUGAGCCUGAGCCAAUGGGAC: 0.408
GUCUUUGGAUUUGGACCUCUUGGGGAAAAGAACGCUGUCAGGAAGGGUUUUAAGGGACACCAGUGGAGGUGUGGCUGAAUCUUCAUGUAUUGUUUGGCUUUCUGAGGGAU: 1.17
GGUGAGGGAGGGAUCUAAGUAGAAAAAGAUGAGUUCUGAUCUUCUUUAUCUCUUCUAAACUGUGUUUAUAUUGCUCUGGGUCCAACAACACUAAAUCAUAGUUUAACACA: 0.364
UAAUCAGAUUAACUUCUUAAACUGCUUAAUUCUCAUCGCUUCUUAAAACUAGGGUGGUUUGCAGGUAUCCAAAAAUAUGCUAUGACAGAACAAAAUUGUGGUAUUCAUGA: 1.46

Block 6 — method: RNA Bind-n-Seq; form: RNA; medium: in vitro; tested at: 1 µM; notes: whole 134-nt RNA, ends assumed; together with: 150 mM KCl; baseline: input library; reading: higher = stronger binding; quantity: log2 enrichment
Target: Ras GTPase-activating protein-binding protein 1, RRM domain (G3BP1, Homo sapiens, UniProt Q13283)
Sequence of UniProt Q13283 (whole entry, looked up): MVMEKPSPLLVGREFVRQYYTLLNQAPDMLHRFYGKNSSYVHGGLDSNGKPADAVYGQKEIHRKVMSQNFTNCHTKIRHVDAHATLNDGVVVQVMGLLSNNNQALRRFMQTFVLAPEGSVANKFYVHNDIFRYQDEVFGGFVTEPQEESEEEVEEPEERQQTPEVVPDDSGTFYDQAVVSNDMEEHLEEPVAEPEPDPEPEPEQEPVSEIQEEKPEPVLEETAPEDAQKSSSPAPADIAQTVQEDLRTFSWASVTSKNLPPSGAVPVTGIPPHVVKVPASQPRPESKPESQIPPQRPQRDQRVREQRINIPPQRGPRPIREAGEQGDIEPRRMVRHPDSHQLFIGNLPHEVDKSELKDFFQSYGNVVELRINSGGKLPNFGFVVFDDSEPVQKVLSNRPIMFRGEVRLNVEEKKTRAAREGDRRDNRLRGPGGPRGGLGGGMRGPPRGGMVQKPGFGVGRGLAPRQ
Shared flanks, not repeated: GGGAGUUCUACAGUCCGACGAUC … UGGAAUUCUCGGGUGUCAAGG
UGGGAGGUGGAUUUUGUUUAUUUUUUUAGCUCAUUUCCAGGGGUGGGAAUUUUUUCUUAAUAUGUGUCAUGAAUAAAGUUGUUUUUGAAA: 2.07
GUCCUGUGCUACACAUCGUAUGUACCGAAUCGGGGAGGGGUUUGGGGAAAAAAAGGGGAAAGUAUUAUGUUACGCCGUUCGGAUCUGCAC: 0.98
UGGCCCUGGUGGCAUGCGGGGAGGAAGAGGUGGCCUCAUGGAUCGUGGUGGUCCCGGUGGAAUGUUCAGAGGUGGCCGUGCUGGAGACAG: 0.804
CCUGUGCUACACAUCGUAUGUACCGAAUCGGGGUUUUUUUGGGGUUUUUUUGGGGUGGGGAAAGUAUUAUGUUACGCCGUUCGGAUCUGC: 0.16
UCCUGUGCUACACAUCGUAUGUACCGAAUCGGGGCCCCCCGGCCCCCCGGGCCCCCCGGAAAGUAUUAUGUUACGCCGUUCGGAUCUGCA: -0.353
GUCCUGUGCUACACAUCGUAUGUACCGAAUCGGCCCCCGGCCCCCGGGGCCCCCGGGGAAAGUAUUAUGUUACGCCGUUCGGAUCUGCAC: -0.511
CAAGUCCUGUGCUACACAUCGUAUGUACCGAAUCGGGCCCCGGCCCCGGCCCCGGAAAGUAUUAUGUUACGCCGUUCGGAUCUGCACUUC: -1.4
UGCUGGAGUGGCAGAAGACUUUUGAGGAGAAGCUCACGCCGUUGCUGAGUGUGCGGGAGUCACUCUCAGAGGAAGAGGCCCAGAAGAUGG: -0.43
GUCCUGUGCUACACAUCGUAUGUACCGAAUCGGGAAAGGGAAAAAAAGGGAAAAAGGGAAAGUAUUAUGUUACGCCGUUCGGAUCUGCAC: 0.328
UCAAGUCCUGUGCUACACAUCGUAUGUACCGAAUCGGGGAAGGAAGGGAAGGGGAAAGUAUUAUGUUACGCCGUUCGGAUCUGCACUUCC: 0.0538
AGUCCUGUGCUACACAUCGUAUGUACCGAAUCAAACCCAAAUUUAAAUUUUUUUAAAAAAGUAUUAUGUUACGCCGUUCGGAUCUGCACU: -0.843
GCAGGAAGUAAAAACAAAUGGAAAUGCUUCGGAUAGUGGAAGGGGUGGGGGUUGCUAAGGAAAGGGUGGGAUGGGAGUGGGUAAAGAGUU: 0.821
UUUCUAGGCAAGAGGAGGAACGACGUAGAAGAGAGGAAGAGAUGAUGAUUCGUCAACGUGAGAUGGAAGAACAAAUGAGGCGCCAAAGAG: -0.2
AGUCCUGUGCUACACAUCGUAUGUACCGAAUCGGGUGGGAAAAAGGGUUUUUUUGGGAAAGUAUUAUGUUACGCCGUUCGGAUCUGCACU: 0.503

For quick reference, copied from above (block 4):
T154R: -7.3%
K58D: 6.58%
I133L: 55.2%
Q31Y: -0.905%
D92M: -1.01%
V62E: 2.82%
L82G: 21.9%
M68Y: 20.6%
A13D: 40.4%
F15S: 5.39%
T17N: 3.04%
E109A: 16.9%
